Results gathered from unrelated publications.
Each line is one published result; not all experiments were run side by side. Numbers after ± are the reported error.

| SMILES | cell line | assay | system | conditions | EC50 [nM] |
| --- | --- | --- | --- | --- | --- |
| O=C(CCc1ccc(CNC(C(=O)OC2CCCC2)C2CCCCC2)cn1)NO (stereo not drawn) | monocytes | global acetylation, flow cytometry | human whole blood | 4 h | 158 |
| C=CC(=O)Nc1cc(-c2nn(C3CCN(CCNC(=O)[C@H](C)CCC45CC6CC(CC(C6)C4)C5)CC3)c3ncnc(N)c23)ccc1Oc1ccccc1 | HCC827 GR6 | cell proliferation | – | 3 days | 1400 |
| Cc1ccc2c(n1)c1nc(C)ccc1c1nc3cc4ccccc4cc3nc21.[Ru+2].c1ccc(-c2cccc(-c3ccccn3)n2)nc1.c1ccncc1 | MCF-10A | cell growth or viability, MTT | – | dark | > 25000 |
| C/C(=N\NC(=O)c1cccc(S(=O)(=O)N2CCOCC2)c1)c1cc(Cl)ccc1O | TF-1a | cell growth or viability, resazurin | – | 96 h | 1620 |
| CCCCCCCCCCCCCCCC(=O)N[C@@H](CCC(=O)NCCCC[C@H](NC(=O)[C@H](CC(=O)O)NC(=O)[C@H](CO)NC(=O)[C@@H](NC(=O)[C@H](Cc1ccccc1)NC(=O)[C@@H](NC(=O)CNC(=O)[C@H](CCC(N)=O)NC(=O)[C@H](CO)NC(=O)[C@@H](N)Cc1c[nH]cn1)[C@@H](C)O)[C@@H](C)O)C(=O)N[C@@H](CO)C(=O)N[C@@H](CCC(=O)O)C(=O)N[C@@H](Cc1ccc(O)cc1)C(=O)N[C@@H](CC(C)C)C(=O)N[C@@H](CC(=O)O)C(=O)N[C@@H](CO)C(=O)N[C@@H](CCC(=O)O)C(=O)N[C@@H](CCCNC(=N)N)C(=O)N[C@@H](C)C(=O)N[C@@H](CCCNC(=N)N)C(=O)N[C@@H](CC(=O)O)C(=O)N[C@@H](Cc1ccccc1)C(=O)N[C@H](C(=O)N[C@@H](C)C(=O)N[C@@H](Cc1c[nH]c2ccccc12)C(=O)N[C@@H](CC(C)C)C(=O)N[C@@H](CCC(=O)O)C(=O)N[C@@H](C)C(=O)NCC(=O)NCC(=O)O)C(C)C)C(=O)O | rat INS-1 832/3 β-cells | cAMP accumulation, agonist | – | with: 0.1% BSA | 0.226 ± 0.066 |
| FC(F)(F)c1ccnc(-c2cc(C(F)(F)F)ccn2)c1.FC(F)(F)c1ccnc(-c2cc(C(F)(F)F)ccn2)c1.[Cl-].[Cl-].[Ru+2].c1csc(-c2ccc(-c3ccc(-c4ccc(-c5nc6c7cccnc7c7ncccc7c6[nH]5)s4)s3)s2)c1 | SK-MEL-28 | cell viability, resazurin | – | visible light, hypoxia 1% O2, lowest over replicates | 35 |
| O=C1NCCN1C[C@H](O)Cn1c2ccc(F)cc2c2cc(F)ccc21 | sample A glioblastoma stem cells | viability | – | 72 h | 36900 |
| CC1OC2OC3C4=C(OC3(C)C12O)C(=O)c1c(O)cccc1C4=O (stereo not drawn) | MDA-MB-231 | viability, MTT | – | 48 h | 3780 |
| [Ru+2].c1ccc(-c2ccc3c(n2)c2ncccc2c2nc4cc5ccccc5cc4nc32)nc1.c1ccc(-c2ccc3c(n2)c2ncccc2c2nc4cc5ccccc5cc4nc32)nc1 | MCF-10A | cell viability, MTT | – | 1 h, blue light 56 J/cm2 | > 25000 |
| CN(Cc1ccc(/C=C/C(=O)NO)cc1)CC12CC3CC(CC(C3)C1)C2 | PNC | histone H4K12 acetylation, refers to: H4K12ac | – | – | 100 |
| C(=C/c1ccccc1)/c1ccccc1 | U-937 | apoptosis, Hoechst nuclear staining | – | 24 h, 50% apoptosis induction | 20000 |
| CC(=O)Nc1ccc(Sc2ncccc2C(=O)Nc2ccc(F)cc2)cn1 | HEK293 parental | IP-One | – | counter-screen, with: ATP | 6000 |

Some of these lines once more:
| SMILES | cell line | assay | system | conditions | EC50 [nM] |
| --- | --- | --- | --- | --- | --- |
| CCCCCCCCCCCCCCCC(=O)N[C@@H](CCC(=O)NCCCC[C@H](NC(=O)[C@H](CC(=O)O)NC(=O)[C@H](CO)NC(=O)[C@@H](NC(=O)[C@H](Cc1ccccc1)NC(=O)[C@@H](NC(=O)CNC(=O)[C@H](CCC(N)=O)NC(=O)[C@H](CO)NC(=O)[C@@H](N)Cc1c[nH]cn1)[C@@H](C)O)[C@@H](C)O)C(=O)N[C@@H](CO)C(=O)N[C@@H](CCC(=O)O)C(=O)N[C@@H](Cc1ccc(O)cc1)C(=O)N[C@@H](CC(C)C)C(=O)N[C@@H](CC(=O)O)C(=O)N[C@@H](CO)C(=O)N[C@@H](CCC(=O)O)C(=O)N[C@@H](CCCNC(=N)N)C(=O)N[C@@H](C)C(=O)N[C@@H](CCCNC(=N)N)C(=O)N[C@@H](CC(=O)O)C(=O)N[C@@H](Cc1ccccc1)C(=O)N[C@H](C(=O)N[C@@H](C)C(=O)N[C@@H](Cc1c[nH]c2ccccc12)C(=O)N[C@@H](CC(C)C)C(=O)N[C@@H](CCC(=O)O)C(=O)N[C@@H](C)C(=O)NCC(=O)NCC(=O)O)C(C)C)C(=O)O | rat INS-1 832/3 β-cells | cAMP accumulation, agonist | – | with: 0.1% BSA | 0.226 ± 0.066 |
